Published values from different studies.
Each line is one published result; not all experiments were run side by side. “And” joins repeats or separate records; there may be more than shown. ± marks the error that the study gave. In brackets after ≈: the same amount, converted by molar mass.

With `CCOC(=O)c1nn(Cc2ccccn2)c(C)c1C(=O)NC1CCC(C(F)(F)F)CC1` (stereo not drawn) the viability reduction was 10.7% (Schistosoma mansoni; microscopic viability scoring; newly transformed schistosomula; 10 µM, 72 h, prescreen).
For `CC[C@H](C)[C@@H]1NC(=O)[C@@H]2CCCN2C(=O)[C@H](CC(C)C)NC(=O)[C@H](CC(C)C)NC(=O)CNC(=O)[C@@H](NC(=O)[C@@H](NC(=O)[C@H](CC(=O)O)NC(=O)CNC(=O)[C@@H](NC(=O)[C@H](C)NC(=O)CNC(=O)[C@H](CCCCN)NC(=O)[C@H](CC(C)C)NC(=O)[C@H](CC(C)C)NC(=O)[C@H](CCCCN)NC(=O)CNC(=O)[C@@H](NC(=O)[C@@H](N)CC(C)C)C(C)C)C(C)C)C(C)C)CSSC[C@@H](C(=O)O)NC1=O`, “log2 fold change” read -1.66 (RNA-seq, refers to: Dok3; mouse, traumatic brain injury model, frontal cortex and hippocampus; dose not given; reference: TBI alone).
`Cc1c2c(nn1C)CSCc1cc(n(C)n1)CSc1cc(c3ccccc3c1)OCCCc1c(C(=O)O)n(C)c3c-2c(Cl)ccc13` gave a fold change of 15.6 (Staphylococcus aureus; label-free quantitative proteomics, refers to: SAOUHSC_00659 protein; SA113; concentration not given; reference: untreated control).
The IC50 of `Nc1c(C(=O)Nc2ccccc2F)sc2nc(-c3ccccc3)cc(C(F)(F)F)c12` is reported as > 100 µM (Mycobacterium tuberculosis; growth inhibition; H37Rv LepB under-expressing).
`CC[C@@H](C)[C@@H](NC(=O)[C@@H](Cc1ccc(O)cc1)NC(=O)[C@H]1CCCN1C(=O)[C@@H](CCCNC(=N)N)NC(=O)[C@H](N)Cc1c[nH]cn1)C(=O)N[C@H](C)C(=O)N[C@H](Cc1c[nH]cn1)C(=O)N[C@H](CCCNC(=N)N)C(=O)N[C@H](CCCCNC(=O)c1cccc(S(=O)(=O)F)c1)C(=O)N[C@H](Cc1ccc(O)cc1)C(=O)N[C@H](CO)C(=O)N[C@H](Cc1ccccc1)C(N)=O`: “IFN-γ+ CD8+ T cell frequency” 8.94% and 9.18% and 9.66% and 9.35% (ex vivo flow cytometry; GL261-Luc brain tumour mice, cervical lymph node; dose not given).
With `CN1CCN(S(=O)(=O)c2cc([N+](=O)[O-])ccc2N(CCOS(C)(=O)=O)CCOS(C)(=O)=O)CC1` the event-free survival was 40.3 days (NSG mice, sample BA PDX; intraperitoneal, 25 mg/kg weekly x3).
`COc1cc(CCC[P+](c2ccccc2)(c2ccccc2)c2ccccc2)c(OC)c2c1OCO2.[I-]` has a TGI of -4.62 log M (OVCAR-8; SRB).
For `CCOC(=O)c1cc2cc(Br)ccc2oc1=O`, the viability reduction was 17.3% (Schistosoma mansoni; microscopic viability scoring; newly transformed schistosomula; 10 µM, 72 h, prescreen).
For `O=C(Nc1cccnn1)N1CCN([C@@H]2CCOc3cc(C(F)(F)F)ccc32)CC1`, the inhibition was 28% (L-type calcium channel, diltiazem site; binding; 20 µM).
For `COc1ccc(-n2nc(C(C)=O)s/c2=N\N=C(/C)c2ccc(NC(C)=O)cc2)cc1`, the viability was 91% (HepG2; 0.078 µM).
`COc1c(CCC[P+](c2ccccc2)(c2ccccc2)c2ccccc2)cc2c(c1OC)OCO2.[I-]` has a GI50 of -5.58 log M (SF-295; SRB).
With `Nc1c(C(=O)Nc2ccccc2C(F)(F)F)sc2nc(-c3ccccc3)cc(C(F)(F)F)c12` the IC50 was > 100 µM (Mycobacterium tuberculosis; growth inhibition; H37Rv LepB under-expressing).
For `CCCCC1(CCCC)CN(c2ccccc2)c2cc(SC)c(OCC(=O)N[C@@H](C(=O)NCC(=O)O)c3ccccc3)cc2S(=O)(=O)C1`, the serum LDL-C was 121 mg/dL (refers to: LDL cholesterol; human, serum; 5 mg once daily, day 2).
For `Nc1ncnc2c1ncn2[C@@H]1O[C@@H]2COP(=O)(O)O[C@H]3[C@@H](O)[C@H](n4cnc5c(=O)[nH]cnc54)O[C@@H]3COP(=O)(O)O[C@H]2[C@H]1O`, the fold enrichment was 31.6 (HFF-1; RNA sequencing, refers to: Reactome OAS antiviral response; upregulated pathways; reference: mock).
The Kd of `CCCCN1CCCC[C@@H]1C(=O)Nc1c(C)cccc1C` is reported as 139 ± 9 µM (sodium channel (rat); peak sodium current, blocker, whole-cell patch clamp; GH3; tonic block).
With `Clc1ccccc1-c1ccccc1Cl` the IC25 was 15 µM (gap junction, rat; gap junctional communication, scrape loading dye transfer; WB-F344 rat liver epithelial; 1 h).
`CC[C@H](C)[C@H](NC(=O)[C@H](C)NC(=O)[C@H](CCCCN)NC(=O)[C@H](CC(C)C)NC(=O)[C@H](C)NC(=O)[C@@H](NC(=O)[C@H](Cc1c[nH]cn1)NC(=O)[C@H](CC(C)C)NC(=O)[C@@H](NC(=O)[C@@H](NC(=O)[C@H](CCCCN)NC(=O)[C@H](C)NC(=O)[C@H](C)NC(=O)[C@H](CO)NC(=O)[C@H](CCCCN)NC(=O)[C@H](Cc1ccccc1)NC(=O)[C@@H](NC(=O)[C@H](CCCCN)NC(=O)[C@H](CC(C)C)NC(=O)[C@H](Cc1ccccc1)NC(=O)[C@H](CO)NC(=O)[C@H](CCCCN)NC(=O)[C@H](Cc1c[nH]c2ccccc12)NC(=O)[C@H](CCCCN)NC(C)=O)[C@@H](C)O)[C@@H](C)O)C(C)C)[C@@H](C)O)C(=O)N[C@@H](CO)C(=O)N[C@@H](CO)C(N)=O` has an MIC50 of 8 µg/mL (≈ 2.73 µM) (Enterobacter aerogenes; 40 strains).
With `CC(c1cccnc1)n1c(=S)[nH]c2cc(CO)c(Cl)cc2c1=O` (stereo not drawn) the MIC90 was 42 µM (≈ 14.6 µg/mL) (Mycobacterium tuberculosis; PptT conditional knockdown).
With `CC(/N=N/c1ccc(F)cc1)=C1SCCCS1` the viability reduction was 70% (Schistosoma mansoni; microscopic viability score; adult worms; 10 µM).
With `CNc1ncc2c(/C=C/C(=O)N3CCC4(CC3)OCCO4)nn(Cc3cccc(C)c3)c2n1` the EC50 was 1.36 µM (CP-A pre-malignant; cell viability, PrestoBlue; 120 h).
For `COc1ccc(-c2cc(C(F)(F)F)c3c(N)c(C(=O)NC(C)C4CCCCC4)sc3n2)cc1` (stereo not drawn), the selectivity index was > 91 (Mycobacterium tuberculosis; H37Rv wild type; reference: HepG2 IC50 over M. tuberculosis IC90).
`CCOC(=O)CCCn1c(S)nc2ccccc21` has a viability reduction of 20% (Schistosoma mansoni; microscopic viability scoring; newly transformed schistosomula; 10 µM, 72 h, prescreen).
With `COc1ccc(-c2cc(C(F)(F)F)c3c(N)c(C(=O)NCc4ccccc4)sc3n2)cc1` the selectivity index was < 1 (Mycobacterium tuberculosis; H37Rv wild type; reference: HepG2 IC50 over M. tuberculosis IC90).
The EC50 of `CC[C@H](C)[C@H](NC(=O)[C@H](CCCCN)NC(=O)[C@@H](NC(=O)[C@@H](NC(=O)[C@H](CC(C)C)NC(=O)[C@H](CCCNC(=N)N)NC(=O)[C@@H](NC(=O)[C@H](CC(C)C)NC(=O)[C@H](CCCNC(=N)N)NC(=O)CNC(=O)[C@H](Cc1ccccc1)NC(=O)[C@@H](N)CCCNC(=N)N)[C@@H](C)CC)[C@@H](C)CC)C(C)C)C(=O)N[C@@H](C)C(=O)N[C@@H](CCCNC(=N)N)C(=O)N[C@@H](CCCNC(=N)N)C(=O)N[C@@H](C)C(=O)N[C@@H](Cc1c[nH]cn1)C(=O)N[C@@H](CCCNC(=N)N)C(=O)N[C@@H](C)C(=O)N[C@@H](CCCNC(=N)N)C(=O)N[C@@H](CO)C(=O)N[C@@H](C)C(=O)N[C@H](C(=O)N[C@@H](CCCCN)C(=O)N[C@@H](C)C(=O)N[C@@H](C)C(=O)N[C@@H](CO)C(=O)N[C@@H](CC(N)=O)C(=O)N[C@H](C(=O)N[C@@H](C)C(=O)N[C@@H](CCC(=O)O)C(=O)N[C@@H](CC(C)C)C(=O)N[C@@H](C)C(=O)N[C@@H](Cc1c[nH]cn1)C(=O)NCC(=O)N[C@@H](CCC(=O)O)C(=O)O)C(C)C)C(C)C` is reported as ≥ 0.19 µM (SH-SY5Y; membrane disruption).

Excerpt of the above:
`CCOC(=O)CCCn1c(S)nc2ccccc21` has a viability reduction of 20% (Schistosoma mansoni; microscopic viability scoring; newly transformed schistosomula; 10 µM, 72 h, prescreen).
`CC[C@@H](C)[C@@H](NC(=O)[C@@H](Cc1ccc(O)cc1)NC(=O)[C@H]1CCCN1C(=O)[C@@H](CCCNC(=N)N)NC(=O)[C@H](N)Cc1c[nH]cn1)C(=O)N[C@H](C)C(=O)N[C@H](Cc1c[nH]cn1)C(=O)N[C@H](CCCNC(=N)N)C(=O)N[C@H](CCCCNC(=O)c1cccc(S(=O)(=O)F)c1)C(=O)N[C@H](Cc1ccc(O)cc1)C(=O)N[C@H](CO)C(=O)N[C@H](Cc1ccccc1)C(N)=O`: “IFN-γ+ CD8+ T cell frequency” 8.94% and 9.18% and 9.66% and 9.35% (ex vivo flow cytometry; GL261-Luc brain tumour mice, cervical lymph node; dose not given).
